Results collected from several papers.
Each line is one published result; not all experiments were run side by side. ± marks the error that the study gave.
Cell line: human red blood cells

| Compound | test | test system | conditions | how to read | measurement | result |
| --- | --- | --- | --- | --- | --- | --- |
| CC[C@H](C)[C@H](NC(=O)[C@H](C)NC(=O)[C@H](CCCCN)NC(=O)[C@H](CC(C)C)NC(=O)[C@@H](N)Cc1ccccc1)C(=O)N[C@@H](CCCCN)C(=O)N[C@@H](CCCCN)C(=O)N[C@@H](Cc1ccccc1)C(=O)NCC(=O)N[C@@H](CCCCN)C(=O)N[C@@H](CCC(=O)O)C(=O)N[C@@H](Cc1ccccc1)C(=O)N[C@@H](CCCCN)C(=O)N[C@@H](CCCCN)C(=O)N[C@H](C(=O)NCC(=O)N[C@@H](C)C(=O)N[C@@H](CCCCN)C(=O)N[C@@H](CC(C)C)C(=O)N[C@@H](CCCCN)C(=O)O)[C@@H](C)CC |  | PBS | 1 mg/L |  | hemolysis | 0.225% |
| NCCCC[C@@H](CC(N)=O)NC(=O)C[C@H](Cc1ccccc1)NC(=O)[C@H]1CCCC[C@@H]1NC(=O)C[C@H](CCCCN)NC(=O)C[C@H](Cc1ccccc1)NC(=O)[C@H]1CCCC[C@@H]1NC(=O)C[C@H](CCCCN)NC(=O)C[C@H](Cc1ccccc1)NC(=O)[C@H]1CCCC[C@@H]1N |  |  | antifungal MIC, 1 h, pH 7.5 | baseline: melittin | hemolysis | 36.3 ± 5.97% |
| CC(C)C[C@H](NC(=O)[C@H](CCCNC(=N)N)NC(=O)[C@@H](N)Cc1c[nH]c2ccccc12)C(=O)N[C@@H](Cc1c[nH]c2ccccc12)C(=O)N[C@@H](Cc1c[nH]c2ccccc12)C(=O)N[C@@H](Cc1c[nH]c2ccccc12)C(=O)N[C@@H](CCCNC(=N)N)C(=O)N[C@@H](CCCNC(=N)N)C(=O)N[C@@H](Cc1c[nH]c2ccccc12)C(=O)O |  |  | 1 h, 37 °C, 10% hemolysis |  | lowest hemolytic concentration | > 256 µg/mL |
| CC(C)C[C@H](NC(=O)[C@H](CC(C)C)NC(=O)[C@H](CCCCN)NC(=O)CNC(=O)[C@H](CC(C)C)NC(=O)CNC(=O)[C@H](CO)NC(=O)[C@H](CC(C)C)NC(=O)[C@H](CC(C)C)NC(=O)[C@H](CO)NC(=O)[C@H](CCCCN)NC(=O)[C@H](CC(C)C)NC(=O)[C@H](CCCCN)NC(=O)[C@H](CCCCN)NC(=O)[C@H](C)NC(=O)[C@H](C)NC(=O)[C@H](C)NC(=O)CNC(=O)[C@H](CO)NC(=O)[C@H](Cc1c[nH]c2ccccc12)NC(=O)[C@@H](N)CCCCN)C(=O)O | hemolysis |  | 1 h |  | HC50 | > 200 µM |
| CC(C)C[C@H](NC(=O)[C@H](CCCNC(=N)N)NC(=O)[C@H](CCCNC(=N)N)NC(=O)[C@@H](N)Cc1c[nH]c2ccccc12)C(=O)N[C@@H](Cc1c[nH]c2ccccc12)C(=O)N[C@@H](Cc1c[nH]c2ccccc12)C(=O)N[C@@H](Cc1c[nH]c2ccccc12)C(=O)N[C@@H](CCCNC(=N)N)C(=O)N[C@@H](Cc1c[nH]c2ccccc12)C(=O)O |  |  | 1 h, 37 °C, 10% hemolysis |  | lowest hemolytic concentration | > 256 µg/mL |
| CC(C)[C@H](N)CC(=O)N[C@H](CC(=O)N[C@@H](CCCNC(=N)N)CC(=O)N[C@H](CC(=O)N[C@H](CC(=O)N[C@@H](CCCNC(=N)N)CC(=O)N[C@H](CC(=O)N[C@H](CC(=O)N[C@@H](CCCNC(=N)N)CC(N)=O)C(C)C)C(C)C)C(C)C)C(C)C)C(C)C |  |  | antifungal MIC, 1 h, pH 7.5 | baseline: melittin | hemolysis | 0.86 ± 1.9% |
| CN(C)CCCNC(=O)[C@@H]1NC(=O)[C@@H]2Cc3ccc(cc3)Oc3cc4cc(c3O)-c3ccc5c(c[nH]c5c3)C[C@@H](NC(=O)C(NC(=O)CCCCCN)c3ccc(O)cc3)C(=O)N[C@H](c3ccc(O)cc3)C(=O)N[C@H]4C(=O)N[C@@H](C(=O)N2C)c2ccc(cc2)Oc2cc1ccc2O (some centres unmarked) |  |  | 0.5 µg/mL, 1 h, 37 °C, 1% DMSO |  | hemolysis | 0% |
| N=C(N)NCCC[C@H](NC(=O)[C@H](CCCNC(=N)N)NC(=O)[C@H](CCCNC(=N)N)NC(=O)[C@H](CCC(N)=O)NC(=O)[C@H](CCCNC(=N)N)NC(=O)[C@H](CCCNC(=N)N)NC(=O)[C@H](CCCCN)NC(=O)[C@H](CCCCN)NC(=O)[C@H](CCCNC(=N)N)NC(=O)CNC(=O)[C@H](Cc1ccc(O)cc1)NC(=O)[C@H](Cc1ccccc1)NC(=O)[C@H](Cc1ccccc1)NC(=O)[C@H](Cc1ccccc1)NC(=O)Cc1ccc2ccccc2c1)C(=O)O | hemolysis |  |  | minimum concentration causing 10% hemolysis | HC10 | > 64 µM |

Repeated from above:
| Compound | test | test system | conditions | how to read | measurement | result |
| --- | --- | --- | --- | --- | --- | --- |
| CC(C)C[C@H](NC(=O)[C@H](CC(C)C)NC(=O)[C@H](CCCCN)NC(=O)CNC(=O)[C@H](CC(C)C)NC(=O)CNC(=O)[C@H](CO)NC(=O)[C@H](CC(C)C)NC(=O)[C@H](CC(C)C)NC(=O)[C@H](CO)NC(=O)[C@H](CCCCN)NC(=O)[C@H](CC(C)C)NC(=O)[C@H](CCCCN)NC(=O)[C@H](CCCCN)NC(=O)[C@H](C)NC(=O)[C@H](C)NC(=O)[C@H](C)NC(=O)CNC(=O)[C@H](CO)NC(=O)[C@H](Cc1c[nH]c2ccccc12)NC(=O)[C@@H](N)CCCCN)C(=O)O | hemolysis |  | 1 h |  | HC50 | > 200 µM |
